Assay results pooled from the literature.
Each numbered part is a random draw from the data of one study; scales do not carry over between parts. Positions count from the first letter of the parent shown.

Block 1 — target: tungstate, free oxyanion; technique: microfluidic competitive inhibition; sample: in vitro, cell-free expressed; concentration: not given; reading: lower = stronger binding
Notes: derived from inhibition constants, unchanged parent 2230 nM
Starting sequence: PafA, mature enzyme, eGFP fusion (Elizabethkingia meningoseptica, UniProt Q9KJX5); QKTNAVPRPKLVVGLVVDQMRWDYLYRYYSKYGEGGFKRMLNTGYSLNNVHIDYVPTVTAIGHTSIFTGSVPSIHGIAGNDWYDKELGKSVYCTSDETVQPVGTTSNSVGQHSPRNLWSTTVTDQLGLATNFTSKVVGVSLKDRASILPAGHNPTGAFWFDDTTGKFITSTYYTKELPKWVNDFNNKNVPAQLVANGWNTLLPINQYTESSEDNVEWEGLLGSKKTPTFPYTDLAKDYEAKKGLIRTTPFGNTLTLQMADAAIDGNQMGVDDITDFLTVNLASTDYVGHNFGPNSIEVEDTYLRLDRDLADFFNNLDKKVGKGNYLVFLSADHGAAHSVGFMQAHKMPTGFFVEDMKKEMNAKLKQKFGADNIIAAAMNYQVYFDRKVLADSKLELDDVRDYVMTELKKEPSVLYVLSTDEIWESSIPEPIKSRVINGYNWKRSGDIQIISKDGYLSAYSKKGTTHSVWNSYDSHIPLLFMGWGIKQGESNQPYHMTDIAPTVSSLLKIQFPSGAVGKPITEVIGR
`N470G` — result for “oxyanion analog dissociation constant”: 1620 nM.
`A157V`: “oxyanion analog dissociation constant” 2070 nM.
`G14V`: “oxyanion analog dissociation constant” 2520 nM.

Block 2 — read-out: binding; technique: phage display NGS; form: peptide; concentration: concentration not given; notes: normalized abundance; relative to: input library
Target: UDP-N-acetylglucosamine--peptide N-acetylglucosaminyltransferase 110 kDa subunit (OGT, Homo sapiens, UniProt O15294)
Construct (O15294 1-1046): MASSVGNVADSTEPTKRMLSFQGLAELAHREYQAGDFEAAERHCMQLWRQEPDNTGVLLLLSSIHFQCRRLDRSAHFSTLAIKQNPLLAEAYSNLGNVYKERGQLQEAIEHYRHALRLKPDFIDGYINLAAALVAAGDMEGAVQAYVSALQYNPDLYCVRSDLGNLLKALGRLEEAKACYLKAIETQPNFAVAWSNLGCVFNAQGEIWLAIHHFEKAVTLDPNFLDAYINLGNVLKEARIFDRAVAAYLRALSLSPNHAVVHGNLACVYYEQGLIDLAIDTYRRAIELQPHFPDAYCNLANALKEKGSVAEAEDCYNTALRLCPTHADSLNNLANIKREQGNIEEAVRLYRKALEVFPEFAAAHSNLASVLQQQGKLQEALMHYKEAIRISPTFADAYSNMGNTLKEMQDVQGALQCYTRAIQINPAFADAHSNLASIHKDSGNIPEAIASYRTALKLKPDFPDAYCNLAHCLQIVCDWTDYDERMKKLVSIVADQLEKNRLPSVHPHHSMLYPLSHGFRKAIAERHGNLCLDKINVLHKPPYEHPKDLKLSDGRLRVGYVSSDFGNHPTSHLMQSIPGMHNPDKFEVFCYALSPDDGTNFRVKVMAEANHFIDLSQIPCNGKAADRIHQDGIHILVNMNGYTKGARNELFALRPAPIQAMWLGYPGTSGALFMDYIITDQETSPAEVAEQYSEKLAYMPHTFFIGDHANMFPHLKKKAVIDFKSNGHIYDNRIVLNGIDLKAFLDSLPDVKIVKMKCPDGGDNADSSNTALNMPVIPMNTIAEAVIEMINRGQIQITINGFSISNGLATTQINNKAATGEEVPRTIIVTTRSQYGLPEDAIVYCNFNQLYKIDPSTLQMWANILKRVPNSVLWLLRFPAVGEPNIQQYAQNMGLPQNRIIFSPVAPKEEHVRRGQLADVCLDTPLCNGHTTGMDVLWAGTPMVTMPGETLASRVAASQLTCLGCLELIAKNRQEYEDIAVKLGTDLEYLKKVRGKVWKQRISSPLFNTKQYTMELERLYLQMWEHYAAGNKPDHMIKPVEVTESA
`TWFQHPSNPSHINQS`: “enrichment fold change” 5.91.
For `QIQTMLHQHSVHHTH`, “enrichment fold change” read 5.83.
Under “enrichment fold change”, `TQWRMDHKHHQMHRI` is recorded as 65.5.

Block 3 — target: Sox, HMG box (Pigoraptor chileana); technique: Spec-seq; form: double-stranded DNA, one strand shown; sample: in vitro; concentration: not given; notes: whole probe, mean of replicates; relative to: not given; reading: lower = stronger binding; shared flanks, not repeated: GAGTCGTCTCGTCAGCAC … CCGTAGAGCACTCAGGTC
Target sequence (chain): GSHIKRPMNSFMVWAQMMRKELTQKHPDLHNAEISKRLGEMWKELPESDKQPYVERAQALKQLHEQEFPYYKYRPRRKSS
Under “relative binding energy”, `ATTGGTT` is recorded as 0.0186 ln ratio.
Under “relative binding energy”, `CATTTGC` is recorded as 0.657 ln ratio.
For `CATTGGG`, “relative binding energy” read -0.0438 ln ratio.
`CATTCCA`: “relative binding energy” 0.54 ln ratio.
Under “relative binding energy”, `CATTGAA` is recorded as -0.581 ln ratio.
`TTCAGTT`: “relative binding energy” -0.125 ln ratio.
For `CATCCGC`, “relative binding energy” read 0.954 ln ratio.
For `CATCAGA`, “relative binding energy” read 0.341 ln ratio.

Block 4 — target: CCNF, cyclin fold, Cln2 fusion (human); technique: yeast growth competition, sequencing; sample: yeast; notes: strong parent motif; relative to: not given; reading: higher = stronger binding; starting sequence: viral docking peptide; KGVKRKLFAEDSS
`KGVKRKRFAEDSS [L7R]` — result for “normalised enrichment score”: 0.65.
For `KGVKRKLIAEDSS [F8I]`, “normalised enrichment score” read 1.34.
`KGVKRKLMAEDSS [F8M]`: “normalised enrichment score” 2.1.
`KGAKRKLFAEDSS [V3A]`: “normalised enrichment score” 7.81.
Under “normalised enrichment score”, `KGPKRKLFAEDSS [V3P]` is recorded as 8.06.
For `KGVKRKLFAECSS [D11C]`, “normalised enrichment score” read 7.87.
`KPVKRKLFAEDSS [G2P]`: “normalised enrichment score” 8.24.
For `KGVKRKLFEEDSS [A9E]`, “normalised enrichment score” read 7.65.
For `KGVKRKLFDEDSS [A9D]`, “normalised enrichment score” read 7.34.
Under “normalised enrichment score”, `KGVERKLFAEDSS [K4E]` is recorded as 4.45.
`KGVKKKLLAEDSS [R5K F8L]`: “normalised enrichment score” 0.756.
`KGVKRKSFAEDSS [L7S]`: “normalised enrichment score” 0.497.
Under “normalised enrichment score”, `KGVKRKLFAEDMS [S12M]` is recorded as 7.91.
For `KGYKRKLFAEDSS [V3Y]`, “normalised enrichment score” read 5.22.
Under “normalised enrichment score”, `KGVKRKMFAEDSS [L7M]` is recorded as 0.3.
`KGVKRSLFAEDSS [K6S]`: “normalised enrichment score” 6.98.
For `KGVKHKLFAEDSS [R5H]`, “normalised enrichment score” read 0.914.

Block 5 — technique: protein-binding microarray; form: double-stranded DNA, one strand shown; sample: in vitro; concentration: not given; reading: higher = stronger binding
Target: Max dimerization protein 1, bHLH-zipper, MAX partner unstated (MXD1, Homo sapiens, UniProt Q05195, residues 56-136)
Notes: k-mer, scored over probes, only values ≥0.25
Target sequence (chain): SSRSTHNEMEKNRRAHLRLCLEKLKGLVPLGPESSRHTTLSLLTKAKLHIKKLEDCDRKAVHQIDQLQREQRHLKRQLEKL
`GACGTGGA` has an E-score of 0.266.
The E-score of `AACCAACG` is reported as 0.254.
`CACACATG` has an E-score of 0.412.
The E-score of `CCCGTGCG` is reported as 0.281.
With `AGGCCATG` the E-score was 0.271.
`ACATGTCG` has an E-score of 0.367.
The E-score of `CATGGGAC` is reported as 0.332.
The E-score of `GGGGCACA` is reported as 0.284.
